Assay results pooled from the literature.
Numbered parts are unrelated; each lists some results of a single study. Positions count from the first letter of the parent shown.

Study 1 — method: RNA Bind-n-Seq; molecule type: RNA; sample: in vitro; concentration: not given; reference: input RNA pool; direction: higher = stronger binding
Target: RING finger protein unkempt homolog, zinc fingers 1-6, GST-SBP tag (UNK, Homo sapiens, UniProt Q9C0B0, residues 30-357)
Chain of UniProt Q9C0B0 (30-357, looked up): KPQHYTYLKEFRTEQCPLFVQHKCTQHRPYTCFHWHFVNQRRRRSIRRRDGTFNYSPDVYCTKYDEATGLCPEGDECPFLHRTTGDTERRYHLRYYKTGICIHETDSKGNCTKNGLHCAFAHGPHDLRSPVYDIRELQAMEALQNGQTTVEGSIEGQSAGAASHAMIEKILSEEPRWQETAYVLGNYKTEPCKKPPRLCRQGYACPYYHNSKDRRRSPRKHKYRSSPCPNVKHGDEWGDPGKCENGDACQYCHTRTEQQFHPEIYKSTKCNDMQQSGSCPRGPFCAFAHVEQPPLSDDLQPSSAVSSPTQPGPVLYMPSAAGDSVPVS
Setting: RNA with constant flanks, human and mouse sites, ends assumed
Constant ends, left off below: GGGAGUUCUACAGUCCGACGAUC … CAACAGAGGAUUGAGCAUCA
| Oligonucleotide | bound/input enrichment [ratio] |
| --- | --- |
| AGACUGGCCUACGCUGAAAACAUAGCUCUGUUGGCCGAGACGGCUCUGCGAUUCCUGGAGCUUGUGCAGCUGAAAACUCUCAACAUGGAGAACGAGCCCGAUAACGAGGAGGUAGAUGAA | 0.313 |
| UCAUGUAGUUCGUUUUUAAUUUCAAGCAAAUCUUAUUGUACUUGAAUGUGCCCUGUUUUGUUAGCACACCUAGACUUGCUGUAACUGUACUCAUGUCCCAGUAUGUACCUUCUUUCUAUG | 1.78 |
| AAUAUGGCCAAACAGAUUGGAGCAGCUACUUAUAUCGAAUGCUCAGCUUUACAGUCGGAAAAUAGCGUCAGAGACAUUUUUCACGUUGCCACCUUGGCAUGUGUAAAUAAGACAAAUAAA | 0.304 |
| GGAAUGGAUGCUCUUCCUUAUAUUGAUUUAAUUGACCCAGCUGAGAUUGAUCUCCUAUUAAUUAGUCAUUUCCAUUUGGAUCACUGUGGAGCUCUGCCCUGGUUUCUACAGAAGACAAGU | 1.05 |
| GAGUGCCCUGUGUUUACACCGCCCGGAGGAGAGACGCUGGACCAGGUGAAAAUGCGUGGAAUAGACUUUUUUGAAUUUCUUUGUCAACUAAUCCUGAAAGAAGCGGAUCAAAAAGAACAG | 0.431 |
| UAUAGUGGGGUUGGUAAUUCAUCAGUUUCUGGCCAUGGUAUUCUCCCAAGCUAUCAGGAACUAGUGGAAGACCGUUUCAGGAAACCUCAUGCUUUUGCUGUGCCUGGACAGUCUUAUCAG | 0.428 |
| GUGCAGCAGGACACUAUCCUGGCCGAGGGCCUUCACUUCAGGAUCCCUUGGUUCCAGUACCCCAUUAUCUAUGACAUUCGGGCCAGACCUCGAAAAAUCUCCUCCCCUACAGGCUCCAAA | 0.432 |
| CUGCGCCAGAGAACAGAGAAUAUAGAUAUUAAAAAGUAUUGUGUGCAGUACCUGGAGGAUGUAGGUUCUUUUGCAUACACUCGACACACUCUUAGAGAGCUUGAAGCUAAAGCCUACAAA | 7.78 |
| GUCAUCGAUGCAGGAGUCUGCAGGAGGCUUGUGGAACUUCUGAUGCAUAAUGACUAUAAAGUAGUUUCUCCUGCUUUGCGGGCUGUGGGAAACAUUGUCACAGGGGAUGAUAUUCAGACA | 0.222 |
| AAUAUGGAGUCAGUUUUUGACUAUAGUAUAAAUUCUGUACAUGAUGAGAAAAUGGAAGAGCAAACUGAAAUUCUUCAAAAUGGCUUCAAUCCUGAAGAAGAUAAAUGCAAUAACUGUGAU | 0.235 |
| CCUGAAUUCUUGGUCUAUUUUCCAUUGCUAAAUGAAAUGGCAAAGAAGUACAAUAUGAAACUAGUCUACAAAAAAACAUUUCUGGAAUUCUACGAAGAAAAGAUUAAGAACAAUGAAAAU | 0.328 |

Study 2 — method: protein-binding microarray; molecule type: double-stranded DNA, one strand shown; sample: in vitro; concentration: 2200 nM top; setting: 60-bp whole probe; with: salmon DNA 0.4 mg/ml; reference: random background probes; direction: higher = stronger binding; constant ends, left off below: GCCTAGCAC … GTCTTGATTCGCTTGACGCTGCTG
Target: Interferon regulatory factor 7, full length, phosphomimetic (IRF7, Homo sapiens, UniProt Q92985, residues 1-503, S471D/S472D/S475D/S476D/S477D/S483D/S484D/S487D)
Residues (chain): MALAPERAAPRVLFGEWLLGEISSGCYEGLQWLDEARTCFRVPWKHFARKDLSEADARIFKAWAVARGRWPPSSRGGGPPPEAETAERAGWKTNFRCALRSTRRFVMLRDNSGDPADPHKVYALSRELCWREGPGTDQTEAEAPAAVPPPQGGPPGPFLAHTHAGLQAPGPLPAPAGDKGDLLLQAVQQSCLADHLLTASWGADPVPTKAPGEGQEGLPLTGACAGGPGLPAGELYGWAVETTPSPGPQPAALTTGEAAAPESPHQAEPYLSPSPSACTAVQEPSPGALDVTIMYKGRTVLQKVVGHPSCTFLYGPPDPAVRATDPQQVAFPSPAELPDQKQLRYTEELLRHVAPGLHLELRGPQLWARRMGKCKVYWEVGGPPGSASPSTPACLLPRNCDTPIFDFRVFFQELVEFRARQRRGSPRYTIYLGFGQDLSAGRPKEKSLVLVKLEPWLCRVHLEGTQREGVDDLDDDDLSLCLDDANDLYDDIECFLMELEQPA
| Oligonucleotide | fitted relative affinity |
| --- | --- |
| TTAGATTTCAGTCTCGACTAGTGCTAG | 0.531 z-score |
| TCAGCCCTCACCATCATACTGTGCTAG | 0.976 z-score |
| GACGGTCTCGGTCTCGGCACGTGCTAG | -0.14 z-score |
| TTAGAACTGAGTTTCGATGAGTGCTAG | 0.681 z-score |
| TTAGGACGGGGACTGGGTTAGTGCTAG | -0.49 z-score |
| TTACGTTTCGACTTTCGGTTAGTGCTA | 10.8 z-score |
| TTAGGTCTCGGACAGGGTTAGTGCTAG | -0.403 z-score |
| GACGGTAGCGGACTGGGGACGTGCTAG | -1.12 z-score |
| TTAGGTCGCCTTCTCCTTTAGTGCTAG | 0.82 z-score |
| TTAGGTTTCGGTTTGGGTTAGTGCTAG | 14.6 z-score |
| TTAGAACTGGGGTTTCGTTTAGTGCTA | 2.92 z-score |
| TCAGGTATGGCCTATTTAACTGTGCTA | -0.0753 z-score |
| TCATATATGAATATATAACTGTGCTAG | 0.506 z-score |
| CACTCTTGCTTTTTAGATCGGTGCTAG | 1.53 z-score |
| TTAGGTCTCGGTCCCGGTTAGTGCTAG | 0.181 z-score |
| GCAAATATATCAGTGAATTTGTGCTAG | -0.104 z-score |
| GACGATCTCAGACTGTAGACGTGCTAG | 0.124 z-score |
| TTAGGTATCCATATCCTTTAGTGCTAG | 0.791 z-score |
| TTAGGACTGCTTTACCTTTAGTGCTAG | 0.635 z-score |
| CAGCACAGCTGACTACAAGCGTGCTAG | -0.138 z-score |
| TCATTTCTCTATTGCTTACTGTGCTAG | 2.9 z-score |
| GACGGTATCGATTATCGGGACGTGCTA | 0.361 z-score |
| TTACGTATCGGTATCGGTTAGTGCTAG | 2.19 z-score |
| TGGTCTTTCTGTTTTCTCCAGTGCTAG | 4.66 z-score |
| TTAGGTTTCCTTCACCTTTAGTGCTAG | 1.49 z-score |

Study 3 — target: CCNA2, cyclin fold, Cln2 fusion (human); method: yeast growth competition, sequencing; sample: yeast; setting: strong parent motif; reference: not given; direction: higher = stronger binding
Starting sequence: SAMHD1 docking peptide (human); ASKSRVQLFKDDP
| Change | normalised enrichment score |
| --- | --- |
| S2I | 3.55 |
| V6G | 0.104 |
| D12E | 3.62 |
| D11G | 1.86 |
| K3F | 1.1 |
| D12T | 2.85 |
| L8R | -0.231 |
| F9M | 0.276 |
| L8V | 0.232 |
| D12N | 2.72 |
| D12W | 3 |
| K10E | 1.12 |
| V6C | 2.44 |
| K10G | 1.5 |
| S2N | 2.66 |
| Q7R | 3.75 |
| D11K | 1.54 |
| L8D | -0.0426 |
| Q7E | 1.57 |
| Q7L | 0.606 |
| D11Y | 1.66 |

Study 4 — method: protein binding microarray; molecule type: double-stranded DNA, one strand shown; sample: in vitro; concentration: not given; reference: not given; direction: higher = stronger binding
Target: Histone acetyltransferase KAT6A, winged helix 2, GST fusion (KAT6A, Homo sapiens, UniProt Q92794, residues 85-181)
Setting: 8-mer, flanks averaged, mean of 2 arrays, mostly near background
Construct (chain): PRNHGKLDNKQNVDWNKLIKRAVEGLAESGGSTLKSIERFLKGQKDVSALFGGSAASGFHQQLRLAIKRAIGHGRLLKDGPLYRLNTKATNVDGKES
| Oligonucleotide | E-score |
| --- | --- |
| TGTCAAAA | 0.0308 |
| TAGCCCAA | 0.0471 |
| AGGGGGTC | -0.0991 |
| TGGACCCA | -0.148 |
| TAACCGAA | -0.000545 |
| AATACCTC | 0.114 |
| ATAACCGG | -0.18 |
| GAGGATAA | 0.123 |
| CATATGAG | -0.0435 |
| CGGTGGGC | 0.0918 |
| AAACGCAT | -0.0406 |
| ATAAAACC | -0.019 |
| CTTAAACC | -0.0832 |
| CGATTGCG | 0.0645 |
| GAGCCATA | -0.07 |
| ATAACAAA | 0.123 |
| AGGCTGCA | 0.0372 |
| AAATTCGC | 0.0885 |
| ACATTCTG | -0.195 |
| CGCGCCGA | 0.197 |
| AATTAACT | -0.102 |

Study 5 — method: DHFR PCA, deep sequencing; sample: yeast; with: (+)-ABA 1.4 µM; reference: wild-type fitted maximum; direction: higher = stronger binding
Target: ABI1, truncated, D143A, DHFR fusion (Arabidopsis thaliana)
Setting: methotrexate growth selection, single substitutions
Starting sequence: PYL1, truncated, DHFR fusion (Arabidopsis thaliana); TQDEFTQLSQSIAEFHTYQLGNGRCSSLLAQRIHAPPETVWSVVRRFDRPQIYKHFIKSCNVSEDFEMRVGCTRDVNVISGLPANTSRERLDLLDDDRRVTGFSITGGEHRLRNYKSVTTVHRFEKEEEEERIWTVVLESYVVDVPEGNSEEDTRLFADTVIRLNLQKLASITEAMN; partner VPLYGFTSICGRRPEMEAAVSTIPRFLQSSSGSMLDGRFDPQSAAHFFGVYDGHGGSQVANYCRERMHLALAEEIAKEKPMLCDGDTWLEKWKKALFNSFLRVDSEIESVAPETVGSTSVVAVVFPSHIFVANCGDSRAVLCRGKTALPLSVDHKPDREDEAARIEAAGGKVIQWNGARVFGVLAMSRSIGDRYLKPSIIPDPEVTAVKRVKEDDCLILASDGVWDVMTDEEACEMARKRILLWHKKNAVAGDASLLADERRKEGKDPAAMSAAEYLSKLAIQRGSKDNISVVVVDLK
| Change | relative binding score |
| --- | --- |
| L28R | 22.8% |
| C25H | -3% |
| D48Y | -11.5% |
| F103G | -4.87% |
| T1W | 60.3% |
| P146S | 0.115% |
| E128M | 50.6% |
| E67K | 48.7% |
| H122V | 0.993% |
| P146R | -1.33% |
| V78T | 17.6% |
| V40E | -6.91% |
| R69V | 63.9% |
| P83R | 3.75% |
| C60N | -14.7% |
| R46C | 14.1% |
| V70Y | -3.24% |
| R49C | 51.6% |
| R45Y | -11.8% |
| Q2N | 59.4% |
| T6L | 48.7% |
| F15A | -1.57% |
| R163G | 30.9% |

Study 6 — target: FOSL1, bZIP domain (human); method: DHFR protein complementation; sample: yeast; reference: wild-type JUN-FOS pair; direction: higher = stronger binding
Setting: single substitutions, most at no-binding floor
Starting sequence: JUN, bZIP domain (human); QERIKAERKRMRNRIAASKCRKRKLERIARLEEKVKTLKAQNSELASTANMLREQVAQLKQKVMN; partner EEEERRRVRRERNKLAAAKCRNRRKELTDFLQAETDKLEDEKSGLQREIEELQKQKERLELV
| Change | binding fitness [natural log] |
| --- | --- |
| K39L | -0.928 |
| A29T | -0.466 |
| K36M | -0.326 |
| R30S | -0.236 |
| E54H | -0.635 |
| E44W | -0.973 |
| K34E | -0.796 |
| E54V | -0.783 |
| E33M | -0.539 |
| S47W | -0.522 |
| Q55A | -0.385 |
| L31K | -1.23 |
| L31E | -1.21 |
| S43M | -0.357 |
